# Assay results pooled from the literature.
# Numbers after ± are the reported error.
# Organism: Escherichia coli
Molecule,test,test system,setting,how to read,measurement,value
colistin,broth microdilution,clinical isolate RKI-No_75/15,,,MIC,≤ 0.5 µg/mL
polymyxin B,"XTT, preformed biofilm",ATCC BAA-2452,"1 × MIC, 24 h",,biofilm mass reduction,44%
colistin,tetracycline activity,tetracycline-resistant,"0.0156 µM, together with: tetracycline",baseline: tetracycline alone,fold enhancement,2 fold
Polymyxin B,,ATCC 25922,"31.2 µg per disc, 24 h, 37 °C",,inhibition zone diameter,14 mm
Triton X-100,checkerboard,tetracycline-resistant (pBR322),"20 µM, together with: tetracycline",,tetracycline MIC,450 ± 100 µM
Polymyxin B,,ATCC 25922,"concentration not given, together with: KCl 4.5 mM",baseline: no added salt,MIC fold change,2 fold
colistin,broth microdilution,ATCC 25922,,,MIC,0.125 µg/mL
gentamicin,time-kill,,"1 x MIC, 60 min",,viable count,1.3 log CFU/mL
